Experimental data pooled from the literature.
Compare with care: the assays were run in different laboratories. ± gives the spread as reported.
Target: Tyrosine-protein kinase TXK (TXK, Homo sapiens, UniProt P42681)
Sequence (P42681 1-527, as in one of the studies): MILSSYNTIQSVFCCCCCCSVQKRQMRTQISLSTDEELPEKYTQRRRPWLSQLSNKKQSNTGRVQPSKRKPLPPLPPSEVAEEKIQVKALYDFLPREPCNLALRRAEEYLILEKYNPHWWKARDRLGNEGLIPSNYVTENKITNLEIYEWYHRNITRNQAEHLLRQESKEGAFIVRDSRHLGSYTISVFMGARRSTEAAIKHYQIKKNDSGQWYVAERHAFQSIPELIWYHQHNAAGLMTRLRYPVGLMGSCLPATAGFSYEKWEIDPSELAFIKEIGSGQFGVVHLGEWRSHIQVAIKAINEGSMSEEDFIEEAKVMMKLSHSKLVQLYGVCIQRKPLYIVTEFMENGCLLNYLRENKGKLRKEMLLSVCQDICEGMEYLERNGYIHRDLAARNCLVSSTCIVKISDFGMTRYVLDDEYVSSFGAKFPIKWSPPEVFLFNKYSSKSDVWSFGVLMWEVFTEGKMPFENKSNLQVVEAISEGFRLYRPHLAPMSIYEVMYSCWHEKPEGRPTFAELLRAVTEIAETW

With Cc1cc(Nc2cc(N3CCN(C)CC3)nc(Sc3ccc(NC(=O)C4CC4)cc3)n2)[nH]n1 the remaining activity was 89% (kinase activity, KinaseProfiler; 0.03 µM, species human; baseline: control).
The remaining activity of COc1cc(F)ccc1-c1ncnc(Nc2cccc(C[S@](C)(=N)=O)c2)n1 is reported as 67% (kinase activity; 10 µM, added: 10 µM ATP).
CNc1ncc2c(/C=C/C(=O)N3CCC(OC)CC3)nn(Cc3cccc(C(F)(F)F)c3)c2n1 gave a remaining activity of 109% (kinase activity, inhibitor; 1 µM; baseline: untreated control).
The remaining activity of C=CC(=O)N1CCC[C@@H](n2nc(-c3ccc(Oc4ccccc4)cc3)c3c(N)ncnc32)C1 is reported as -0.1 ± 0.1% (kinase activity, inhibitor, HotSpot radiometric; 100 nM, added: ATP 10 µM).
C=CC(=O)N1CCCN(C(=O)c2cc(Sc3cnc(NC(=O)C4CC4)s3)c(C)cc2OC)C[C@H]1C has a remaining activity of 70% (kinase activity, inhibitor; concentration not given; baseline: control).
The remaining activity of C=CC(=O)N1CCC[C@@H](n2nc(-c3ccc(Oc4ccccc4)cc3)c3c(N)ncnc32)C1 is reported as 105% (1 µM).
C#Cc1cc(-c2cc(Nc3nc(N[C@@H](C)c4ccc(F)cn4)ncc3Cl)n[nH]2)ccc1C=O gave an inhibition of 10.5% (enzyme activity, inhibitor; 0.2 µM).
O=C(NC1CCC1)c1ccc2nc(-c3cccc(NS(=O)(=O)NCCN4CCCCC4)c3)cn2c1 has a remaining activity of 78% (enzyme activity; 10 µM).
COc1ccc(F)cc1C(=O)NCc1ccc(-c2nn([C@@H](C)C(F)(F)F)c(N)c2C(N)=O)cc1 gave a remaining activity of 19.6 ± 0.6% (kinase activity, inhibitor, HotSpot radiometric; 1000 nM, added: ATP at Km).

Repeated from above:
C#Cc1cc(-c2cc(Nc3nc(N[C@@H](C)c4ccc(F)cn4)ncc3Cl)n[nH]2)ccc1C=O gave an inhibition of 10.5% (enzyme activity, inhibitor; 0.2 µM).
